{"data": "Results gathered from unrelated publications", "note": "± gives the spread as reported."}
{"Compound": "CC1(C)S[C@@H]2[C@H](NC(=O)[C@H](NC(=O)C3=C(O)C(c4ccccc4F)NC3=O)c3ccccc3)C(=O)N2[C@H]1C(=O)O (stereo partly shown)", "organism": "Proteus mirabilis", "test": "microbial growth, broth dilution", "system": "ATCC25933", "quantity": "MIC", "result": "3.1 µg/mL"}
{"Compound": "CC[C@H](C)[C@H](NC(=O)[C@H](CCCN)NC(=O)[C@H](CC(N)=O)NC(=O)[C@H](Cc1c[nH]c2ccccc12)NC(=O)[C@H](Cc1ccccc1)NC(=O)[C@H](CCCN)NC(=O)[C@H](CCCNC(=N)N)NC(=O)[C@H](CC(C)C)NC(=O)[C@H](Cc1c[nH]c2ccccc12)NC(=O)[C@H](CCCN)NC(=O)[C@H](CCCNC(=N)N)NC(=O)[C@H](CC(C)C)NC(=O)CNC(C)=O)C(=O)N[C@@H](CCCN)C(=O)N[C@@H](CCCNC(=N)N)C(N)=O", "organism": "Gram-positive bacteria", "quantity": "geometric mean MIC", "result": "3.13 µM"}
{"Compound": "O=[N+]([O-])c1ccc(/C=N/N=C/c2ccccc2)o1", "organism": "Trypanosoma evansi", "test": "parasite growth, CellTiter-Glo", "system": "Tansui bloodstream form", "setting": "72 h", "quantity": "IC50", "result": "3710 ± 2040 nM"}
{"Compound": "Cc1ncc([N+](=O)[O-])n1CCOCc1nnc(SCC(=O)c2ccc(Cl)cc2)o1", "organism": "viridans streptococci", "system": "DMSO", "setting": "60 µg/mL, 24 h, 37 °C", "quantity": "inhibition zone diameter", "result": "≥ 20 mm"}
{"Compound": "c1ccc(-c2nc(-c3ccc4ccccc4c3)c[nH]2)cc1", "organism": "Schistosoma mansoni", "system": "mature male and female worms", "setting": "5 µM, 96 h", "quantity": "worm killing", "result": "0%"}
{"Compound": "CC(C)(C)c1ccc(CN2C(=O)S/C(=C\\c3ccc(O)c([N+](=O)[O-])c3)C2=O)cc1", "organism": "Salmonella Typhimurium", "test": "Western blot", "system": "MCF7", "setting": "5 µM, 10 h post infection", "quantity": "ERK phosphorylation", "result": "no effect"}
{"Compound": "Cc1ncc([N+](=O)[O-])n1CCOCc1nnc(SCC(=O)c2ccc(F)cc2)o1", "organism": "viridans streptococci", "system": "DMSO", "setting": "60 µg/mL, 24 h, 37 °C", "quantity": "inhibition zone diameter", "result": "15 to 20 mm"}
{"Compound": "COc1ccc(-c2nc(-c3ccccc3OC)[nH]c2-c2ccc(OC)cc2)cc1", "organism": "Schistosoma mansoni", "setting": "worm pairs, no eggs", "quantity": "concentration causing uncoupling", "result": "10 µM"}
{"Compound": "O=C(Nc1ccccc1Nc1ccccc1)c1nccnc1Cl", "organism": "Botrytis cinerea", "test": "microbial growth", "setting": "50 µg/mL", "quantity": "inhibition", "result": "36.6%"}
{"Compound": "C=C(C)[C@@H]1CC[C@]2(C(N)=O)CC[C@]3(C)[C@H](CC[C@@H]4[C@@]5(C)CCCNC(C)(C)[C@@H]5CC[C@]43C)[C@@H]12", "organism": "Human alphaherpesvirus 1", "system": "HFF, E-377", "scale": "relative to: CC50 over EC50", "quantity": "selectivity index", "result": "< 2"}
{"Compound": "CCN(CC)CC#CCNc1ccnc2cc(Cl)ccc12", "organism": "Plasmodium vivax", "test": "schizont maturation", "system": "field isolates", "setting": "20% human serum", "quantity": "IC50", "result": "235 nM"}
{"Compound": "O=c1c(O)cccc(Sc2cccc3ccccc23)c1O", "organism": "Cryptococcus neoformans", "test": "microbial growth, broth dilution", "setting": "13 h", "quantity": "MIC80", "result": "21 µM"}
{"Compound": "O=[N+]([O-])c1ccc(/C=N/N=C/c2ccc(O)cc2)s1", "organism": "Trypanosoma evansi", "test": "parasite growth, CellTiter-Glo", "system": "Tansui bloodstream form", "setting": "72 h", "quantity": "IC50", "result": "610 ± 20 nM"}
{"Compound": "CSc1ccc(SC)c(O)c(=O)c1O", "organism": "Cryptococcus neoformans", "test": "microbial growth, broth dilution", "setting": "13 h", "quantity": "MIC80", "result": "38 µM"}
{"Compound": "O=[N+]([O-])c1ccc(/C=N/N=C/c2ccc([N+](=O)[O-])o2)cc1", "organism": "Trypanosoma evansi", "test": "parasite growth, CellTiter-Glo", "system": "Tansui bloodstream form", "setting": "72 h", "quantity": "IC50", "result": "1740 ± 740 nM"}
{"Compound": "CSc1cccc(O)c(=O)c1O", "organism": "Hepatitis B virus", "test": "viral replication, inhibitor", "system": "HepDES19", "quantity": "EC50", "result": "14.3 µM"}
{"Compound": "Cc1nc2c(cnn2C(C)C)cc1C(=O)NCc1ccc(C(C)O)c(C)n1 (stereo not shown)", "organism": "Drosophila melanogaster", "test": "larval locomotor rescue", "system": "APP Alzheimer model third-instar larvae", "setting": "oral in food, dose not given", "quantity": "effective concentration", "result": "≥ 1 µM"}
{"Compound": "NC(CNC(CNC(CC(=O)O)C(=O)O)C(=O)O)C(=O)O (stereo not shown)", "organism": "Enterobacteriaceae, Acinetobacter, Pseudomonas", "test": "inhibitor", "system": "NDM-positive clinical isolates", "setting": "8 µg/mL, together with: meropenem 2 µg/mL", "quantity": "isolates with restored meropenem susceptibility", "result": "88%"}
{"Compound": "O=c1[nH]cc(C(c2cccc(Cl)c2)c2c[nH]c(=O)[nH]c2=O)c(=O)[nH]1", "organism": "Human immunodeficiency virus 1", "test": "viral replication, inhibitor, ELISA", "setting": "1 µg/mL", "quantity": "inhibition", "result": "58%"}
{"Compound": "CC(C)C[C@@H]1NC(=O)[C@H](CCCCN)NC(=O)[C@H](C(C)C)NC(=O)[C@@H]2CCCN2C(=O)[C@@H](Cc2ccc(O)cc2)NC(=O)[C@H](CC(C)C)NC(=O)[C@H](CCCCN)NC(=O)[C@H](C(C)C)NC(=O)[C@H](CCCCN)NC(=O)[C@H](CC(C)C)NC(=O)[C@@H]2CCCN2C(=O)[C@@H](Cc2ccc(O)cc2)NC(=O)[C@H](C(C)C)NC1=O", "organism": "Gram-positive bacteria", "setting": "24 h, 7 strains", "quantity": "MIC geometric mean", "result": "1.8 µg/mL"}
{"Compound": "C#CCN1CCc2c([nH]c3ccccc23)C(=C)C1=O", "organism": "Hepatitis B virus", "test": "viral replication, inhibitor, qPCR", "system": "HePAD38", "setting": "5 µM", "quantity": "inhibition", "result": "~10%"}
{"Compound": "CC(=O)N[C@H](CCCNC(=N)N)C(=O)N[C@H](CCCNC(=N)N)C(=O)N[C@H](CCCNC(=N)N)C(=O)N[C@H](CCCNC(=N)N)C(=O)N[C@H](CCCNC(=N)N)C(=O)N[C@H](CCCNC(=N)N)C(=O)N[C@H](CCCNC(=N)N)C(=O)N[C@H](CCCNC(=N)N)C(=O)N[C@H](CCCNC(=N)N)C(N)=O", "organism": "HIV-1", "test": "cell-cell fusion, luciferase", "system": "89.6 Env dual-tropic", "setting": "concentration not given", "quantity": "inhibition", "result": "no effect"}
{"Compound": "Cc1ccc(S(=O)(=O)c2cccc(O)c(=O)c2O)cc1", "organism": "Hepatitis B virus", "test": "viral replication, inhibitor", "system": "HepDES19", "quantity": "EC50", "result": "49 µM"}
{"Compound": "CC(C)C[C@@H]1NC(=O)[C@H](CCCCN)NC(=O)[C@H](C(C)C)NC(=O)[C@@H]2CCCN2C(=O)[C@@H](Cc2ccc(O)cc2)NC(=O)[C@H](CC(C)C)NC(=O)[C@H](CCCCN)NC(=O)[C@H](C(C)C)NC(=O)[C@@H]2CCCN2C(=O)[C@@H](Cc2ccc(O)cc2)NC(=O)[C@H](CCCCN)NC1=O", "organism": "Gram-positive bacteria", "setting": "24 h, 7 strains", "quantity": "MIC geometric mean", "result": "7.2 µg/mL"}
{"Compound": "CC[C@H](C)[C@H](NC(=O)CNC(=O)CNC(=O)[C@@H](N)CO)C(=O)NCC(=O)N1CCC[C@H]1C(=O)N[C@@H](CC(C)C)C(=O)N[C@H](C(=O)N[C@H](C(=O)N1CCC[C@H]1C(N)=O)[C@@H](C)CC)C(C)C", "organism": "Clostridioides difficile", "system": "Caco-2", "setting": "concentration not given", "quantity": "reduction of proinflammatory cytokines", "result": "< 20%"}
{"Compound": "Cc1ccc(/C=N/N=C/c2ccc([N+](=O)[O-])s2)cc1", "organism": "Trypanosoma brucei gambiense", "test": "parasite growth, CellTiter-Glo", "system": "IL1922 bloodstream form", "setting": "72 h", "quantity": "IC50", "result": "2500 ± 810 nM"}
{"Compound": "COc1ccc(S(=O)(=O)NCc2c[nH]nc2-c2cccs2)cc1", "organism": "Plasmodium vivax", "test": "reinvasion", "system": "3, human, human red blood cells", "setting": "3× EC50, 20 h", "quantity": "parasitemia", "result": "0%"}
{"Compound": "CC(C)S(=O)(=O)c1cccc(O)c(=O)c1O", "organism": "Hepatitis B virus", "test": "viral replication, inhibitor", "system": "HepDES19", "quantity": "EC50", "result": "0.79 µM"}
{"Compound": "O=[N+]([O-])c1ccc(/C=N/N=C/c2ccc(OCc3ccccc3)cc2)o1", "organism": "Trypanosoma brucei gambiense", "test": "parasite growth, CellTiter-Glo", "system": "IL1922 bloodstream form", "setting": "72 h", "quantity": "IC50", "result": "460 ± 70 nM"}
{"Compound": "Brc1ccc(-c2c[nH]c(-c3ccccn3)n2)cc1", "organism": "Schistosoma mansoni", "system": "female worms", "setting": "10 µM", "quantity": "worm killing", "result": "0%"}
{"Compound": "O=[N+]([O-])c1ccc(/C=N/N=C/c2ccc([N+](=O)[O-])s2)cc1", "organism": "Trypanosoma brucei gambiense", "test": "parasite growth, CellTiter-Glo", "system": "IL1922 bloodstream form", "setting": "72 h", "quantity": "IC50", "result": "970 ± 190 nM"}
{"Compound": "CN(Cc1cc(C2CC2)on1)C(=O)c1cccc(-c2ccc3c(c2)CCO3)c1", "organism": "Cryptococcus neoformans", "system": "H99", "setting": "together with: amphotericin B", "quantity": "FIC index", "result": 2}
{"Compound": "CC(C)C[C@@H]1NC(=O)[C@H](CCCCN)NC(=O)[C@H](C(C)C)NC(=O)[C@H](CCCCN)NC(=O)[C@@H]2CCCN2C(=O)[C@@H](Cc2ccc(O)cc2)NC(=O)[C@H](CCCCN)NC(=O)[C@H](CCCCN)NC(=O)[C@H](C(C)C)NC(=O)[C@@H]2CCCN2C(=O)[C@@H](Cc2ccc(O)cc2)NC1=O", "organism": "Gram-positive bacteria", "setting": "24 h, 7 strains", "quantity": "MIC geometric mean", "result": "116 µg/mL"}
{"Compound": "O=C1CC(c2ccc(O)cc2)Oc2cc(O)cc([O][Ga+][O]c3cc(O)cc4c3C(=O)CC(c3ccc(O)cc3)O4)c21 (stereo not shown)", "organism": "Pseudomonas aeruginosa", "test": "RNA-seq", "system": "PAO1", "setting": "4 µM, 4 h", "quantity": "number of upregulated genes", "result": 749}
{"Compound": "Fc1ccc2c(c1)c1nc3ccc(Br)cc3c-1cn2Cc1cn(-c2ccccc2I)nn1", "organism": "Giardia duodenalis", "test": "UHPLC-Q-TOF-MS, measured: PC(15:0/0:0)", "system": "trophozoites", "setting": "IC50, 0.1525 h", "scale": "relative to: 0.25% DMSO", "quantity": "fold change", "result": 3.09}
{"Compound": "CC(C)C[C@H](NC(=O)OCc1ccccc1)C(=O)N[C@@H](C[C@@H]1CCNC1=O)C(O)S(=O)(=O)[O-].[Na+] (stereo partly shown)", "organism": "Coxsackievirus A10", "test": "plaque", "system": "RD", "setting": "5 µM, 1 h, 37 °C", "scale": "relative to: DMSO", "quantity": "viral entry", "result": "no effect"}
{"Compound": "CC[C@H](C)[C@H](NC(=O)[C@H](CCCCNC(=N)N)NC(=O)[C@H](CC(N)=O)NC(=O)[C@H](CC(C)C)NC(=O)[C@H](Cc1ccccc1)NC(=O)[C@H](CCCCNC(=N)N)NC(=O)[C@H](CCCCNC(=N)N)NC(=O)[C@H](CC(C)C)NC(=O)[C@H](CC(C)C)NC(=O)[C@H](CCCCNC(=N)N)NC(=O)[C@H](CCCCNC(=N)N)NC(=O)[C@H](CC(C)C)NC(=O)CNC(C)=O)C(=O)N[C@@H](CCCCNC(=N)N)C(=O)N[C@@H](CCCCNC(=N)N)C(N)=O", "organism": "Gram-positive bacteria", "quantity": "geometric mean MIC", "result": "3.13 µM"}
{"Compound": "Oc1ccccc1/C=N/NC(=S)Nc1cccc(F)c1", "organism": "Candidozyma auris", "test": "broth microdilution", "system": "922", "scale": "relative to: hit compound", "quantity": "MIC fold improvement", "result": "2 fold"}
{"Compound": "CC1C=CC=CC(C)C2C=CC3CC(C)(O)C(Cl)C(C)C3C2C(=O)C(Cl)(Cl)C(=O)C(C)C(=O)O1 (stereo not shown)", "organism": "Staphylococcus aureus", "system": "MSSA and MRSA clinical isolates", "quantity": "MIC50", "result": "0.1 µg/mL"}
{"Compound": "Cc1ccc(Sc2cccc(O)c(=O)c2O)cc1", "organism": "Cryptococcus neoformans", "test": "microbial growth, broth dilution", "setting": "13 h", "quantity": "MIC80", "result": "1.7 µM"}
{"note": "A few entries again:"}
{"Compound": "CC(C)(C)c1ccc(CN2C(=O)S/C(=C\\c3ccc(O)c([N+](=O)[O-])c3)C2=O)cc1", "organism": "Salmonella Typhimurium", "test": "Western blot", "system": "MCF7", "setting": "5 µM, 10 h post infection", "quantity": "ERK phosphorylation", "result": "no effect"}
{"Compound": "Cc1ncc([N+](=O)[O-])n1CCOCc1nnc(SCC(=O)c2ccc(F)cc2)o1", "organism": "viridans streptococci", "system": "DMSO", "setting": "60 µg/mL, 24 h, 37 °C", "quantity": "inhibition zone diameter", "result": "15 to 20 mm"}
